Measurements collected from several papers.
± gives the spread as reported.

CCCCn1cc(C(=O)O)c(=O)c2cc(F)c3[nH]nnc3c21 — IC50 (T47D; cell growth, SRB; 72 h): 18.5 ± 1.64 µg/mL
O=C1OCC(NCc2ccccc2)N1/N=C/c1ccc([N+](=O)[O-])o1 (stereo not drawn) — IC50 (HepaRG; cell growth or viability, MTT; 24 h): > 100 µM
CCCCn1cc(C(=O)O)c(=O)c2cc(F)c(N)c([N+](=O)[O-])c21 — IC50 (T47D; cell growth, SRB; 72 h): 0.26 ± 0.02 µg/mL
CC1(C)CCC(CN2CCN(c3ccc(C(=O)NS(=O)(=O)c4ccc(NCC5COCCO5)c([N+](=O)[O-])c4)c(N4CCCOc5nc6[nH]ccc6cc54)c3)CC2)=C(c2ccc(Cl)cc2)C1 (stereo not drawn) — IC50 (human platelets; platelet viability, MTS; 72 h): 6.36 µM
CCCCn1cc(C(=O)O)c(=O)c2cc(F)c3c(nnn3-c3ccc(OC)cc3)c21 — IC50 (T47D; cell growth or viability, SRB): 134 µM
Clc1ccc2ccc3[n+](c2c1)[Ir-3]12([c]4ccccc4-3)([c]3ccccc3-c3ccc4ccc(Cl)cc4[n+]31)[n+]1ccccc1-c1cccc[n+]12.F[P-](F)(F)(F)(F)F — IC50 (MDA-MB-231 control; cytotoxicity, MTT): 0.3 µM
CCCCn1cc(C(=O)O)c(=O)c2cc(F)c(Nc3cc(OC)c(OC)c(OC)c3)c([N+](=O)[O-])c21 — IC50 (PANC-1; cell growth or viability, SRB): 99.3 µM
CC1C(=O)NC(=O)N1/N=C/c1ccc([N+](=O)[O-])o1 (stereo not drawn) — IC50 (HepaRG; cell growth or viability, MTT; 24 h): > 100 µM
CCCCn1cc(C(=O)O)c(=O)c2cc(F)c(Nc3cccc(OC)c3)c([N+](=O)[O-])c21 — IC50 (T47D; cell growth, SRB; 72 h): 130 ± 4.61 µg/mL
O=C(Cc1ccccc1)NC(=S)n1c(-c2ccccc2)nc2ccccc21 — IC50 (normal human PBMC; cytotoxicity, MTT; 48 h): 187 ± 19.4 µM
CCCCn1cc(C(=O)O)c(=O)c2cc(F)c3c(nnn3-c3cccc(OC)c3)c21 — IC50 (T47D; cell growth or viability, SRB): 143 µM
O=C1OCC(O)N1/N=C/c1ccc([N+](=O)[O-])o1 (stereo not drawn) — IC50 (HepaRG; cell growth or viability, MTT; 24 h): > 100 µM

Some of these lines once more:
CCCCn1cc(C(=O)O)c(=O)c2cc(F)c3[nH]nnc3c21 — IC50 (T47D; cell growth, SRB; 72 h): 18.5 ± 1.64 µg/mL
